Experimental data gathered from unrelated publications.
Parts stem from different laboratories: compare values within a part only.
Chain of UniProt O15530 (whole entry, looked up): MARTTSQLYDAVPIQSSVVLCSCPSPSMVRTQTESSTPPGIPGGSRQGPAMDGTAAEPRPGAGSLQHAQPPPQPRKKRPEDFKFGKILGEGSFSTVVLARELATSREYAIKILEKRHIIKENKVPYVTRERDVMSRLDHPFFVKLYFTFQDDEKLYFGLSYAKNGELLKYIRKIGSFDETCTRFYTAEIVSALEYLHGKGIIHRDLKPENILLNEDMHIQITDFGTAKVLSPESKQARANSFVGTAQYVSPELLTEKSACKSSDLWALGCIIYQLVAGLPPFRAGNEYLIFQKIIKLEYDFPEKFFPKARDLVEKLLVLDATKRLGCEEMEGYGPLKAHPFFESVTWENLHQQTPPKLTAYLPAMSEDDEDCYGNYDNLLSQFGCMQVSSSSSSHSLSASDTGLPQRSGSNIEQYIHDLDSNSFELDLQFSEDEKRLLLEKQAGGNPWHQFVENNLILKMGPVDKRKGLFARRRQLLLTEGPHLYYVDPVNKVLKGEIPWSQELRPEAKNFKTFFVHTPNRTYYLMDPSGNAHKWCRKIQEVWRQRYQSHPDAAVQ
Chain of UniProt Q16644 (whole entry, looked up): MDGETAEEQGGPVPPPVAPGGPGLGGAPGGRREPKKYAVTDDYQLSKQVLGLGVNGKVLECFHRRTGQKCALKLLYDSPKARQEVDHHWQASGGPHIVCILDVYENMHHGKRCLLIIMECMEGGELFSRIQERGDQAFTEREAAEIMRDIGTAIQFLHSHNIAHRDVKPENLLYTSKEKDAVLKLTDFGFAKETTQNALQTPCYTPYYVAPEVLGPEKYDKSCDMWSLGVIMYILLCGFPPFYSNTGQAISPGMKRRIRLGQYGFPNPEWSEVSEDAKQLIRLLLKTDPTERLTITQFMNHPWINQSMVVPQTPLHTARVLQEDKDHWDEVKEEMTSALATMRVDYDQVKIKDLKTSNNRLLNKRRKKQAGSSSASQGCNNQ
Chain of UniProt P30530 (whole entry, looked up): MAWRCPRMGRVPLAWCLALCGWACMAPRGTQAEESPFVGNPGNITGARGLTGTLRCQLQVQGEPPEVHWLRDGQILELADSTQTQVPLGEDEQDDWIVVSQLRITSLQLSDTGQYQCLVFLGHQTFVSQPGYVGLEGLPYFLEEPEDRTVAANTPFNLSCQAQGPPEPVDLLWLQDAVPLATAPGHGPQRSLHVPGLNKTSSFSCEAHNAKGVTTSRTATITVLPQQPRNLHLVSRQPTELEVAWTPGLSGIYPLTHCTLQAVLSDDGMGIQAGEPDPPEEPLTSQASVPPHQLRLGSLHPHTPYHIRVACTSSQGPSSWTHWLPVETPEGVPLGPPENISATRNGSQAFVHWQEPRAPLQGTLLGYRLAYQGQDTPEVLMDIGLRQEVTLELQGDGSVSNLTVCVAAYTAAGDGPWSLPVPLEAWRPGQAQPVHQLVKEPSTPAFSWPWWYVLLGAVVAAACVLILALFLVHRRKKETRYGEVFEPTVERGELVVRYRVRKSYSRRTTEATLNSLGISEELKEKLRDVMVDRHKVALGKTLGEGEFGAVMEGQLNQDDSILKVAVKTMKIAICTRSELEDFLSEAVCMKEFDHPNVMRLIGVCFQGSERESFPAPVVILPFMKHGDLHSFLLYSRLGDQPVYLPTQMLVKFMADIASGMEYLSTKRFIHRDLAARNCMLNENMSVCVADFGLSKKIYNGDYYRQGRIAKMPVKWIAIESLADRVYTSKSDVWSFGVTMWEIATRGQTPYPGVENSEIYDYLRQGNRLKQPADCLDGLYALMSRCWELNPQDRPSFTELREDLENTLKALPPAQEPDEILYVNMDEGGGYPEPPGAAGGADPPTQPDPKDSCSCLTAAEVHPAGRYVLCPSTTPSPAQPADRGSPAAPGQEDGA
Chain of UniProt Q13554 (whole entry, looked up): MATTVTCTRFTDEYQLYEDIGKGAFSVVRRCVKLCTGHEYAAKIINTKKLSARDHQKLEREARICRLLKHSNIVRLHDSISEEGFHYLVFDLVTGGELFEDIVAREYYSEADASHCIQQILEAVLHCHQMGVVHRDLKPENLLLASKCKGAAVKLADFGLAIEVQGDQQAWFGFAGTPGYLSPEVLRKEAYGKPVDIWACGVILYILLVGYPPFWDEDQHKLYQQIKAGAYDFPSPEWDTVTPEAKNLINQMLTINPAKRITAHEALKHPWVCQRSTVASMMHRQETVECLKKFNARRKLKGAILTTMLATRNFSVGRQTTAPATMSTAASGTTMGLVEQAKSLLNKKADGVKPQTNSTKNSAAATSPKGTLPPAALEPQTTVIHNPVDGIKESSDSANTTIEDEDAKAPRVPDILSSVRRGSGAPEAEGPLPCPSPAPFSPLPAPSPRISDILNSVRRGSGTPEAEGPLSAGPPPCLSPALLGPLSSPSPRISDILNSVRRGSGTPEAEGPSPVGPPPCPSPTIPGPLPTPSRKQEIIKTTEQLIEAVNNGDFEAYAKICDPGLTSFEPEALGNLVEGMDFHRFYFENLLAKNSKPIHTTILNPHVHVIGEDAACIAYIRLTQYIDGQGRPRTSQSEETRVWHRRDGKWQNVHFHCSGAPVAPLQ
Chain of UniProt Q16816 (whole entry, looked up): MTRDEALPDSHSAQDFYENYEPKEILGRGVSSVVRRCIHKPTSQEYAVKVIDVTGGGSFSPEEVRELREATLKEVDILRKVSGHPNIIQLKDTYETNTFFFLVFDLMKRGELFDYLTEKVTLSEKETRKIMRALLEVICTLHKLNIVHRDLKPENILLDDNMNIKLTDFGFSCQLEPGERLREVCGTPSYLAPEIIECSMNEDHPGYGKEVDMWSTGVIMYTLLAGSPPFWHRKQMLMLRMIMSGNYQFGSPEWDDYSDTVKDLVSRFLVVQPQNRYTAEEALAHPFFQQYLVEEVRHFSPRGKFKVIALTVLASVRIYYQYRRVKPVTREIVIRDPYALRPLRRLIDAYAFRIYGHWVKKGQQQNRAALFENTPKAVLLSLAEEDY
Chain of UniProt P54762 (whole entry, looked up): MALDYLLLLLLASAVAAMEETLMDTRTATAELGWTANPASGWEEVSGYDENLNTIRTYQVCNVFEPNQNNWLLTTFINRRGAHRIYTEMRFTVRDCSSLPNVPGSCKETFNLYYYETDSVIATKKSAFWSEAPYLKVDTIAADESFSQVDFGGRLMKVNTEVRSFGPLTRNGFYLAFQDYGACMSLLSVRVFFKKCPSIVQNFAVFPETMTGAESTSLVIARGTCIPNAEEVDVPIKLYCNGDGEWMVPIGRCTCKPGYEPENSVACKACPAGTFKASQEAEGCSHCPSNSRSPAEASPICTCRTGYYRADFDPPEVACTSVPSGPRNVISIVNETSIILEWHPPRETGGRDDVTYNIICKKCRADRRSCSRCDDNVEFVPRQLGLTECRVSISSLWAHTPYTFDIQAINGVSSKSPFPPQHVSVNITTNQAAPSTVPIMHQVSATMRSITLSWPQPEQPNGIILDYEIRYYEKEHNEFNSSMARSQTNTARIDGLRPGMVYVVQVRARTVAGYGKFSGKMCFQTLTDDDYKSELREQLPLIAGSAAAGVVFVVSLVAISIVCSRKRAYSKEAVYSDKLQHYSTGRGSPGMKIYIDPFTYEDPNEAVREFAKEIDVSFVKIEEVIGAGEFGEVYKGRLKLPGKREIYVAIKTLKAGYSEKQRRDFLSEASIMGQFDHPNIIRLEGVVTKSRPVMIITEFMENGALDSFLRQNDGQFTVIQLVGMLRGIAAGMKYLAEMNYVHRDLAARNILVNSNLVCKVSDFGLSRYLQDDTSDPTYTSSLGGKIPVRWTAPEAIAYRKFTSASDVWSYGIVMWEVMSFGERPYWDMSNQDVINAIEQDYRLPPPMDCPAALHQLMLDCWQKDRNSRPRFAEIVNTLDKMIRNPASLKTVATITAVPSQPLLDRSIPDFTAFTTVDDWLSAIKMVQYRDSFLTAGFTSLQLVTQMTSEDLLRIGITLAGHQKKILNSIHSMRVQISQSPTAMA
Chain of UniProt Q96PF2 (whole entry, looked up): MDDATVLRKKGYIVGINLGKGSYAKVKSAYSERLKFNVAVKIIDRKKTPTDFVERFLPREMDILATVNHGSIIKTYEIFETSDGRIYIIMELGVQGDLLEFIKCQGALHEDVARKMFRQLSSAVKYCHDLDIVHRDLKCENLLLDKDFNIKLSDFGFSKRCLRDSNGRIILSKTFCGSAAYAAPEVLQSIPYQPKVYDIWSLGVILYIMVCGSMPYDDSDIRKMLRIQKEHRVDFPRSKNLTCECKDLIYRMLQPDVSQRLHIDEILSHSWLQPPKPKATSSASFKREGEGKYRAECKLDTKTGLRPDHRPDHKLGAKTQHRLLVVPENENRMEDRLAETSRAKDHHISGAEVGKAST
Chain of UniProt P11802 (whole entry, looked up): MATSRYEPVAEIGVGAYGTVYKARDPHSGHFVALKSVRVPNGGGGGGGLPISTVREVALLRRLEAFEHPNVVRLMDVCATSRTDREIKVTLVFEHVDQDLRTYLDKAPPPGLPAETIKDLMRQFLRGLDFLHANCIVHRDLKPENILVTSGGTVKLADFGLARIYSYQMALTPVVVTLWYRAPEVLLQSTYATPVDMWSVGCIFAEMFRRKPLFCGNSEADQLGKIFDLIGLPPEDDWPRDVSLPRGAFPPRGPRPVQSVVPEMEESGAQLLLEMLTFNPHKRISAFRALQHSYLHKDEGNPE

Block 1 — observed: ligand displacement; tested at: 10 µM
Target: Muscarinic acetylcholine receptor M2 (CHRM2, Homo sapiens, UniProt P08172)
Chain of UniProt P08172 (whole entry, looked up): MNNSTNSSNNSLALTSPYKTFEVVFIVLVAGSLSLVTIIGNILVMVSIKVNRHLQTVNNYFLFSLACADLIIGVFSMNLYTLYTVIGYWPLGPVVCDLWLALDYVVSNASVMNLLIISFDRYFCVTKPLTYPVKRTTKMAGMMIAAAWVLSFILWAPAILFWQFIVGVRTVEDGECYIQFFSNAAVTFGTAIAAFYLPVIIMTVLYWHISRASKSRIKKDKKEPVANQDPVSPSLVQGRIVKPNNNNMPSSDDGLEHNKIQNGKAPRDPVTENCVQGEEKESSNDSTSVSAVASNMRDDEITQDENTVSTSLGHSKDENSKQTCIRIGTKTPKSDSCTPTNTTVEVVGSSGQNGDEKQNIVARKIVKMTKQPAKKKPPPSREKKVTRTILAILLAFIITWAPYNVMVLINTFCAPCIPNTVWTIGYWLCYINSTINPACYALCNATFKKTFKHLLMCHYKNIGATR
Structure (SMILES)	inhibition [%]
CN(C)c1ncnc(-c2ccc3nc(Nc4cc(CN5CCN(C(=O)CC(F)(F)F)CC5)ccn4)[nH]c3c2)c1Cl	35.1
CN1CCN(C(=O)C(C)(C)c2ccc(C(=O)Nc3cn4cc(-c5cc(C(C)(C)C)cc(C(C)(C)C)c5)ccc4n3)cc2)CC1	6.55
O=C(NS(=O)(=O)c1ccc(NCC2CCOCC2)c([N+](=O)[O-])c1)c1ccc(N2CCN(Cc3ccc(C(F)(F)F)cc3-c3ccc(Cl)cc3)CC2)cc1Oc1cnc2[nH]ccc2c1	1.6
Nc1nc(NCc2ccccc2)nc(-c2ccccc2CO)n1	23.2
O=C(N[C@H]1CCCCC/C=C\C2C[C@@]2(C(=O)O)NC(=O)[C@@H]2C[C@@H](Oc3ccncc3)CN2C1=O)OC1CCCC1 (stereo partly drawn)	-1.71
CNC(=N)NCCC[C@H](NC(=O)[C@H](CC(C)C)NC(=O)NNC(=O)[C@H](Cc1ccccc1)NC(=O)[C@H](CO)NC(=O)[C@H](CC(N)=O)NC(=O)[C@@H](Cc1ccncc1)NC(=O)[C@H](N)Cc1ccc(O)cc1)C(=O)N[C@@H](Cc1ccccc1)C(N)=O	25.1
O=C1NC(c2ccccn2)Sc2ccccc21 (stereo not drawn)	13.7
CNC(=O)Nc1ccc2c(c1)CC[C@]21OC(=O)N(CC(=O)N(Cc2ccc(F)cc2)[C@@H](C)C(F)(F)F)C1=O	-0.28
C[C@@H](c1cccc(C#N)c1)n1cc(Cl)cc(C(N)=O)c1=N	0.11
c1ccc(C2CCN(c3cnc4c(N5CCOCC5)nccn34)CC2)cc1	9.44
Cn1nc(C(=O)NCc2ccc(C(=O)O)cc2)cc1-c1ccc2[nH]ccc2c1	-8.35
CN([C@@H]1CCc2c(CC(=O)O)c3ccccc3n2C1)S(=O)(=O)c1ccc(F)cc1	-0.4
O=c1nc(-c2ccccn2)sc2ccccc12	5.18
O=C(Nc1ccc(Oc2ccc(F)cc2)cc1)N1CCc2ncccc2[C@H]1c1ccc(F)cc1	-1.78
Nc1nc(NCc2ccccc2)nc(-c2cccc(CO)c2)n1	18.3
Cc1ccccc1Oc1cc(-n2c(=O)cc(C(F)(F)F)[nH]c2=O)c2ccccc2c1Cl	39.2

Block 2 — Compound: O=C(c1ccccc1)c1ccc(N2CCOCC2)cc1O; observed: enzyme activity; mode: inhibitor; tested at: 0.5 µM; relative to: control
target	remaining activity
CAMK2B (Homo sapiens, UniProt Q13554)	105%
PHKG1 (Homo sapiens, UniProt Q16816)	97.4%
MAPKAPK3 (Homo sapiens, UniProt Q16644)	106%
PDPK1 (Homo sapiens, UniProt O15530)	101%
EPHB1 (Homo sapiens, UniProt P54762)	104%
Cyclin-dependent kinase 4, with cyclin D3 (CDK4, Homo sapiens, UniProt P11802)	96.2%
AXL (Homo sapiens, UniProt P30530)	95.1%
TSSK2 (Homo sapiens, UniProt Q96PF2)	104%

Block 3 — host: mouse; matrix: microsomes or S9; tested at: 2 µM; time: 0.5 h
Compound	remaining compound
O=C(NC1(c2ccccc2F)CCCC1)c1cccc(N2CCCC2=O)c1	15.6%
O=C(Nc1nccs1)c1cc2ccc3cccnc3c2[nH]1	0.631%
Cc1cc(C)c(C)c(S(=O)(=O)NCCOCCO)c1C	1.34%
CN(C)CCN(Cc1ccncc1)Cc1c(F)cccc1Cl	40.5%
COC(=O)C1C(C(=O)OC)C2(OC(c3ccccc3)=CC2=O)C12OC(c1ccccc1)=CC2=O (stereo not drawn)	60.2%
COc1ccc2c(n1)c1c(n2-c2ccccn2)CCC1	0.298%
O=C1Nc2c(c3cc(O)ccc3n2Cc2ccccc2)CNC1Cc1ccccc1 (stereo not drawn)	0%
CCN(CCCNC(=O)Nc1cc(Br)cn(C)c1=O)S(C)(=O)=O	11.6%
c1ccc(CNc2nc3ccccc3c3nncn23)cc1	5.03%
Cc1nc(C(C)(C)C)nc(N2CCC(n3cncn3)CC2)c1C	32.3%

Block 4 — cell line: mouse MPNST tumor cells; method: high-content immunofluorescence imaging; item: nuclear SOX9; tested at: 10 µM; time: 12 h; setting: mean of 2 replicates; relative to: DMSO control; reading: higher = more nuclear SOX9
SMILES	nuclear SOX9 intensity
CC(C)NC(=O)Cn1c(-c2ccc(F)c(Cl)c2)nc2ncc(OCCCN3CCOCC3)cc2c1=O	99.2 % of DMSO
CCn1c(-c2nonc2N)nc2c(C#CC(C)(C)O)ncc(OC[C@H]3CCCNC3)c21	185 % of DMSO
NCc1ccccc1CC(=O)N[C@@H]1C(=O)N2C(C(=O)O)=C(CSc3nnnn3CC(=O)O)CS[C@H]12	101 % of DMSO
CCCCCCOc1nsnc1C1=CCCN(C)C1	107 % of DMSO
CN(C)CCCN1c2ccccc2Sc2ccccc21	142 % of DMSO
